Values quoted from earlier work as cited in several papers.
Protocols differ between the studies behind these lines. Numbers after ± are the reported error. No end group written: not given here.
Chain of UniProt P0DOF5 (whole entry, looked up): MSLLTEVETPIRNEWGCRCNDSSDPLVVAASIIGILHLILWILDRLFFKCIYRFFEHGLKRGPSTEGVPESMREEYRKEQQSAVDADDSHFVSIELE

Molecule | target or system | test | system | setting | measurement | result
GKGDFRI (sequence looked up) | SARS-CoV-2 | viral replication | peptide | – | IC50 | 2.96 µg/mL
M2 transmembrane peptide (Influenza A virus) | – | solid-state NMR, item: His37 | virus-mimetic membrane with cholesterol | membrane-bound tetramer, macroscopic, second protonation | pKa | 6.8
GCCSNPVCHLEHSNLC (α-conotoxin MII; ends and bridges not checked; cysteine pairing not given here; sequence looked up) | – | – | peptide, mice, conditioned place preference | dose not given | nicotine reward | decreased
CC(C)(C)NC(=O)N[C@H](C(=O)N1C[C@H]2[C@@H]([C@H]1C(=O)NC(CC1CCC1)C(=O)C(N)=O)C2(C)C)C(C)(C)C (some centres unmarked) | SARS-CoV-2 | viral replication | – | – | IC50 | 38.6 µM
tyrphostin AG 835 | SARS-CoV-2 | viral replication | Vero E6 | 20 µM | cytopathic effect inhibition | 0.05%
Z-FA-FMK | SARS-CoV-2 | viral replication | – | – | IC50 | 26.3 µM
M2 (Influenza A virus, UniProt P0DOF5) | – | NMR, item: His37 | – | tetramer, highest pKa, closed state | pKa | 8.2
Thimerosal | SARS-CoV-2 | cytopathic effect | Caco-2 | – | IC50 | 1.69 ± 0.13 µM

Some of these lines once more:
Molecule | target or system | test | system | setting | measurement | result
GCCSNPVCHLEHSNLC (α-conotoxin MII; ends and bridges not checked; cysteine pairing not given here; sequence looked up) | – | – | peptide, mice, conditioned place preference | dose not given | nicotine reward | decreased
